# Literature values, collected from citations in different studies.
# Sequences of proteins named here, by UniProt entry; tags and fusion partners are left off.
# UniProt P22303, whole entry, looked up: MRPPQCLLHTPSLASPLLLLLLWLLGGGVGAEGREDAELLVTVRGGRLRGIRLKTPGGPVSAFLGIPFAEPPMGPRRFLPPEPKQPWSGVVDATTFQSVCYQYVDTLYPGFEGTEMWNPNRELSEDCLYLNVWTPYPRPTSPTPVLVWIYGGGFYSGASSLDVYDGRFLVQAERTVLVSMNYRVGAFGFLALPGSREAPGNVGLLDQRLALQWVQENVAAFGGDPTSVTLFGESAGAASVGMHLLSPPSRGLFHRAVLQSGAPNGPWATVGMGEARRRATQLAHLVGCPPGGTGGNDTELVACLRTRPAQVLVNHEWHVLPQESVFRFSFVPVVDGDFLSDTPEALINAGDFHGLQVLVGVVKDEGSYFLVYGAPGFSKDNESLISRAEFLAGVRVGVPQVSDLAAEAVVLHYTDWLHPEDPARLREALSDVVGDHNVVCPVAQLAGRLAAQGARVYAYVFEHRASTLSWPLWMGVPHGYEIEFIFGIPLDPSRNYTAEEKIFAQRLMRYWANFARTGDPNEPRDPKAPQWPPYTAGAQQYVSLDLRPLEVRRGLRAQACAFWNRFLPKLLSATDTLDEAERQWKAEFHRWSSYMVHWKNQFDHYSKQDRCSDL
# UniProt P04757, whole entry, looked up: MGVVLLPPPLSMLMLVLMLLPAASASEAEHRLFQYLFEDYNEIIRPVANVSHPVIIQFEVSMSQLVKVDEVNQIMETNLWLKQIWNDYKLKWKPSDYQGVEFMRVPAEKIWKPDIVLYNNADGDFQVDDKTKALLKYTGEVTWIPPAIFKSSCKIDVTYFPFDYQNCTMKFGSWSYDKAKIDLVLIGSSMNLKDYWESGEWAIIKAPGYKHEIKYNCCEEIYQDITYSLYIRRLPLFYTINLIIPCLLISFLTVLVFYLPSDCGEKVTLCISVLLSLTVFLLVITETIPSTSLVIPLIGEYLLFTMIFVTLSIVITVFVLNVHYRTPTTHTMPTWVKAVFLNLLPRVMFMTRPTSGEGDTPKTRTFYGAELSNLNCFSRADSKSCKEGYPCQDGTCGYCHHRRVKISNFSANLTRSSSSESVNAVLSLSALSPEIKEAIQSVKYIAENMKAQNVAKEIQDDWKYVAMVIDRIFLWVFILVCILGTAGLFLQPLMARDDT
# UniProt P12390, whole entry, looked up: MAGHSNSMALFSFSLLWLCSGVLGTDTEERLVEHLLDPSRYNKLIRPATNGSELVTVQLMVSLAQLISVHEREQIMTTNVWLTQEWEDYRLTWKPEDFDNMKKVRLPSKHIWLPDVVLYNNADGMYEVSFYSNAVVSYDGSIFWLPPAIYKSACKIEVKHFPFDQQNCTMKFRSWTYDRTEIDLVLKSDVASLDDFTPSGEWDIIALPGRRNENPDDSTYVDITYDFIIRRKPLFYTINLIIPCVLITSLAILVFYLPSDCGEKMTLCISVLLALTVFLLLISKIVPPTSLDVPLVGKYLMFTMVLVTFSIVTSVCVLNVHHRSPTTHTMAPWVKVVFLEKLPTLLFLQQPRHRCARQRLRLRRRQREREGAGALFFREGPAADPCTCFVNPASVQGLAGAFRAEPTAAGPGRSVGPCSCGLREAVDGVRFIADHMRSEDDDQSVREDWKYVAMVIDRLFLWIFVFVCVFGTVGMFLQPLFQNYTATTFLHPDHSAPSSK
# UniProt P43143, whole entry M241L/F253L/V303I/V320I/I327V/A333T/K339T, looked up: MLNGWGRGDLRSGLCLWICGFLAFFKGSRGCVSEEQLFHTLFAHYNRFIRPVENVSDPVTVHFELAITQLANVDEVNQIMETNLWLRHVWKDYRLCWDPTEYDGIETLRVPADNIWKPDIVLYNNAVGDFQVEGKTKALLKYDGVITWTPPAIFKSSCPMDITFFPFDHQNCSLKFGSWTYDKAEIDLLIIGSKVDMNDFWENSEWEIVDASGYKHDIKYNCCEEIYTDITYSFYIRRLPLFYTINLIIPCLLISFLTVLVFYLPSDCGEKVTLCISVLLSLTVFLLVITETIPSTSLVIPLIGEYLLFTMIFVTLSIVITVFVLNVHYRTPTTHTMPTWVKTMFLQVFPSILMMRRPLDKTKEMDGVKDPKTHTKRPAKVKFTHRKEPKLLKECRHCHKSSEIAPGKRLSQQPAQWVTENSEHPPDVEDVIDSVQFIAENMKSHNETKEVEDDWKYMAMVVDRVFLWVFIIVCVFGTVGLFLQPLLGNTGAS
# Each line is one published result; not all experiments were run side by side. ± gives the spread as reported.
Structure (SMILES),target or system,test,system,conditions,scale,quantity,value
N#Cc1nn(-c2c(Cl)cc(C(F)(F)F)cc2Cl)c(N)c1[S+]([O-])C(F)(F)F (stereo not drawn),GABA-A receptor,binding,,"1 µM, with: [3H]EBOB",,inhibition,69%
CN1CC[C@]23c4c5ccc(O)c4O[C@H]2[C@@H](O)C=C[C@H]3[C@H]1C5,,"antinociception, warm-water tail withdrawal",Swiss Webster mice,,,ED50,7.8 mg/kg
CN1CC[C@]23c4c5ccc(O)c4O[C@H]2[C@@H](O)C=C[C@H]3[C@H]1C5,,hot plate test,rat,subcutaneous,,ED50,3.94 mg/kg
Nc1nc(O)c2nc(CNc3ccc(C(=O)O)cc3)cnc2n1,"Ricin, A chain (Ricinus communis, UniProt P02879)","in vitro translation, inhibitor",,,,IC50,600 µM
O=C(NN1C(=O)[C@@H]2[C@@H]3C=C[C@@H]([C@H]4C[C@@H]34)[C@@H]2C1=O)c1ccc(C(F)(F)F)cc1,monkeypox virus,viral replication,"Vero E6, Zaire",,,EC50,0.008 ± 0.0014 µM
CCOP(=O)(OCC)Oc1ccc([N+](=O)[O-])cc1,"ACHE (Homo sapiens, UniProt P22303)","enzyme activity, inhibitor",,,,ki,15800 M⁻¹ s⁻¹
COC(=O)[C@@H]1[C@H]2C[C@H]3c4[nH]c5ccccc5c4CCN3C[C@@H]2CC[C@@H]1O,,,Sprague-Dawley rat,"dose not given, higher dose, with: fentanyl",,reversal of respiratory depression,~50%
CNC(=O)ON=C(C)SC,,,,,,half-life,2 to 3 h
CN(C)C(=O)Oc1ccc[n+](C)c1,,,mouse,,reference: LD50 pretreated over non-pretreated,protective ratio,0.9
COc1ccc([C@@H]2CC(=O)c3c(O)cc(O)cc3O2)cc1O,"Replicase polyprotein 1ab, 3C-like proteinase (rep, Severe acute respiratory syndrome-related coronavirus, UniProt P0C6X7)","3CLpro cleavage, inhibitor, cell-based",,,,IC50,8.3 µM
CNC(=O)Oc1cccc2c1OC(C)(C)C2,cholinesterases,,,"concentration not given, spontaneous reactivation",,reactivation half-life,~2 h
Nc1nc(O)c2nc(CNc3ccc(C(=O)O)cc3)cnc2n1,ricin A chain,,,,,IC50,600 µM
CC(C)C[C@@H]1NC(=O)[C@H](CCC(=O)O)NC(=O)[C@@H]2CCCN2C(=O)[C@H](Cc2c[nH]cn2)NC(=O)[C@H](CCC(=O)O)NC(=O)[C@H](C(C)C)NC(=O)[C@H](CO)NC(=O)[C@@H]2CSSC[C@H](NC(=O)CN)C(=O)N[C@@H](CSSC[C@@H](C(N)=O)NC1=O)C(=O)N[C@@H](CO)C(=O)N[C@@H](Cc1c[nH]cn1)C(=O)N1CCC[C@H]1C(=O)N[C@@H](C)C(=O)N2,"Chrna3/Chrnb2/Chrna6, with beta3 subunit (Rattus norvegicus, UniProt P04757+P12390+P43143)",antagonist,,,,IC50,0.114 µM
CN(C)[C@]1(c2ccccc2)CC[C@]2(CC1)OCCc1c3cc(F)ccc3[nH]c12,,,rodent chronic pain models,,reference: morphine,relative potency,~1000 fold
CCOP(=S)(CC)Sc1ccccc1 (stereo not drawn),acetylcholinesterase,"inhibitor, qHTS",,with: human liver microsomes,,IC50,2.24 µM

# Excerpt of the above:
Structure (SMILES),target or system,test,system,conditions,scale,quantity,value
CNC(=O)ON=C(C)SC,,,,,,half-life,2 to 3 h
CN(C)C(=O)Oc1ccc[n+](C)c1,,,mouse,,reference: LD50 pretreated over non-pretreated,protective ratio,0.9
